Results from different studies.
Lines come from different studies, so protocols differ. Numbers after ± are the reported error.
VIPR2: Vasoactive intestinal polypeptide receptor 2 (VIPR2, Homo sapiens, UniProt P41587)
Chain of UniProt P41587 (whole entry, looked up): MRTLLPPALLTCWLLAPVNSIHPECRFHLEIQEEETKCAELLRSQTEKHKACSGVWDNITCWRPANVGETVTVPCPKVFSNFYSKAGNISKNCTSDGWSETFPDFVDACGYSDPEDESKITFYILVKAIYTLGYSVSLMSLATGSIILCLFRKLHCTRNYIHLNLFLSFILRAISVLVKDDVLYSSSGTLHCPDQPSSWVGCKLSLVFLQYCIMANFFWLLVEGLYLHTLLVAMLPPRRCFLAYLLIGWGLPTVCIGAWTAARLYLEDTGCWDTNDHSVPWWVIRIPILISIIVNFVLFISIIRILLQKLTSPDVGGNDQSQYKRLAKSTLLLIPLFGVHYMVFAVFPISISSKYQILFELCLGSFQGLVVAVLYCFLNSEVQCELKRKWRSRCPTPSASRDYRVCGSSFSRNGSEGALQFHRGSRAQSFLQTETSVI
Chain of UniProt P43235 (whole entry, looked up): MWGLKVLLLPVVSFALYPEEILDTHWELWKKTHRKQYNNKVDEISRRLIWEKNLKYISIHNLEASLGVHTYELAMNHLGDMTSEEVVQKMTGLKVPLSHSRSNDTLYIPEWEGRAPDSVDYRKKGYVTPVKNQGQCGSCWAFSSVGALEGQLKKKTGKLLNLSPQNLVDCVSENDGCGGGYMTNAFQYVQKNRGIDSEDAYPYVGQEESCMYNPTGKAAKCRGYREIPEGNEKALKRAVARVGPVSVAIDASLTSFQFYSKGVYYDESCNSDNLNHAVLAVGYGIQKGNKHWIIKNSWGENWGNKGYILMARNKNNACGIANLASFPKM
Chain of UniProt P08908 (whole entry, looked up): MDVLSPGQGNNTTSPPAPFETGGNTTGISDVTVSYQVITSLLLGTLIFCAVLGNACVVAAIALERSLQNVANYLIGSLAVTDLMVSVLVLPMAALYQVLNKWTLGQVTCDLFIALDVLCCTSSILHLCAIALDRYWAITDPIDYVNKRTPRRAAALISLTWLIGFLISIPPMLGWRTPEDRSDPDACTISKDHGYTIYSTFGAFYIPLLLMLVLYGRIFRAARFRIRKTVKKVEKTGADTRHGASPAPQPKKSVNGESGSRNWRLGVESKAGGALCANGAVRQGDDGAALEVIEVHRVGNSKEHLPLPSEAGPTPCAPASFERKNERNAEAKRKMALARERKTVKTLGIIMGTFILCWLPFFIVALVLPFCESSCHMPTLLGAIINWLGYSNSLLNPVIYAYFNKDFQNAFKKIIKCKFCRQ
Chain of UniProt P07384 (whole entry, looked up): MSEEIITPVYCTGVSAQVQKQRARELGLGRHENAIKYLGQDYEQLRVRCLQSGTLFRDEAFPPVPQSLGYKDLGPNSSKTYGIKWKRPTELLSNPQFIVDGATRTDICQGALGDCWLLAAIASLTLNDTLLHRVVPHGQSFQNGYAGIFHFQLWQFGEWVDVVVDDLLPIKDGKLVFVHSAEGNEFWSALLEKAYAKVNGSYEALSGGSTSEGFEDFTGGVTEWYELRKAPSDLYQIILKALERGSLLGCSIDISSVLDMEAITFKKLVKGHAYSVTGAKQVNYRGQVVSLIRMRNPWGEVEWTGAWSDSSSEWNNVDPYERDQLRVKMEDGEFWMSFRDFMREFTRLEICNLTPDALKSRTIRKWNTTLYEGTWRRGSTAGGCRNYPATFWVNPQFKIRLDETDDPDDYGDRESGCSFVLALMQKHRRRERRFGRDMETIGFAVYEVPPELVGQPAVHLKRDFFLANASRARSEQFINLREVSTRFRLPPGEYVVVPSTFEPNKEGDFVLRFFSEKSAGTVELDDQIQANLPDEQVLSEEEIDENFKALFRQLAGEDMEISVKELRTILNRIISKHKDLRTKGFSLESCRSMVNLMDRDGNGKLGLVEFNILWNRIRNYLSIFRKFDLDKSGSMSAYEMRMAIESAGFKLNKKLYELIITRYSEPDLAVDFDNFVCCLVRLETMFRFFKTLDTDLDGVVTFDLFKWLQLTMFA
Chain of UniProt P50406 (whole entry, looked up): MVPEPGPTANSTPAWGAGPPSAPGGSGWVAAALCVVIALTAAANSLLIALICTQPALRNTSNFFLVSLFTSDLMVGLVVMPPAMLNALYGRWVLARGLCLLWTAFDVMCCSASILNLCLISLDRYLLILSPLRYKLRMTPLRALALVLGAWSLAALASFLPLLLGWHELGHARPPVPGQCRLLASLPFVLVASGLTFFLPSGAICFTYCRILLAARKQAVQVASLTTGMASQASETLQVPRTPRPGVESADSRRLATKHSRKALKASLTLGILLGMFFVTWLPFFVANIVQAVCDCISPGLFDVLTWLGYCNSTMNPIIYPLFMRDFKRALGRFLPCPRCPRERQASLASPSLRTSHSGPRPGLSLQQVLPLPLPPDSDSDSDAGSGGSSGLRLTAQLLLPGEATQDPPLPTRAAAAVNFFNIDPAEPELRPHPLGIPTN
Chain of UniProt P21554 (whole entry, unmodified, looked up): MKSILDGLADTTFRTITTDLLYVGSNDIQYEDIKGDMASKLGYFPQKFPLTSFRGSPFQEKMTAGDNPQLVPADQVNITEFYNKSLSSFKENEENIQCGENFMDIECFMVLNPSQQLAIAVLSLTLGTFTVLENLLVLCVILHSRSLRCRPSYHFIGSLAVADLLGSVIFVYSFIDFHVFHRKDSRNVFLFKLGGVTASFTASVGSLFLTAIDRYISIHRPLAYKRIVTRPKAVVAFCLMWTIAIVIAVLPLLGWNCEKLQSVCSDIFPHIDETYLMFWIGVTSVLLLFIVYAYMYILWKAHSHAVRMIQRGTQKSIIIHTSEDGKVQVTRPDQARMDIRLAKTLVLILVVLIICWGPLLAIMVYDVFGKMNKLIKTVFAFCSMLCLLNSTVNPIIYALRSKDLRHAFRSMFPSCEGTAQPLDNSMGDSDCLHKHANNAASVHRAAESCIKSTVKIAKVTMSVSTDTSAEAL
Chain of UniProt P41143 (whole entry, unmodified, looked up): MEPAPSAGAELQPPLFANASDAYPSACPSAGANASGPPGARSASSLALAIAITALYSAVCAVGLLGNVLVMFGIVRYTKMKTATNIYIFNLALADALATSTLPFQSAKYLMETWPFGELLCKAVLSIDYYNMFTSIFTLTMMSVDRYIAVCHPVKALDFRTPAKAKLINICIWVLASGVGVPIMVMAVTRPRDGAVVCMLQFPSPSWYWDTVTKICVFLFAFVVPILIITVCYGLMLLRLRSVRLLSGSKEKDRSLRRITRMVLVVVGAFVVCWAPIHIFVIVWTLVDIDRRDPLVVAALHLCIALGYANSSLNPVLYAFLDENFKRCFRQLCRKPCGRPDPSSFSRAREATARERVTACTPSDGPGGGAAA
Chain of UniProt P08588 (whole entry, looked up): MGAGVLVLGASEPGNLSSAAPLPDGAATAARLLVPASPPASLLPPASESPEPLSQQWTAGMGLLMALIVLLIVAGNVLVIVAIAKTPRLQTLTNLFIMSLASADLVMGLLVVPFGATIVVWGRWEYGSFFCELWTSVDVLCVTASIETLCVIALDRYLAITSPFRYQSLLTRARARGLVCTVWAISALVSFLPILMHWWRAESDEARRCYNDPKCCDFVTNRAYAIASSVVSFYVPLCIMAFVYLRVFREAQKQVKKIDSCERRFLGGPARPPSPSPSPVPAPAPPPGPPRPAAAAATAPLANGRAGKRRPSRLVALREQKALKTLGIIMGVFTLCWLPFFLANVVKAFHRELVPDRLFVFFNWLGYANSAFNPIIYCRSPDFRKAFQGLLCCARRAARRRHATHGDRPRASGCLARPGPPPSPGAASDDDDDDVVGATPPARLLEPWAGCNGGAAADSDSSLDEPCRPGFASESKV

| Compound | target or system | assay | system | conditions | measurement | value |
| --- | --- | --- | --- | --- | --- | --- |
| CSCC[C@H](NC(=O)[C@H](CCC(N)=O)NC(=O)[C@H](CCCCN)NC(=O)[C@H](CCCNC(=N)N)NC(=O)[C@H](Cc1ccc(O)cc1)NC(=O)[C@H](CCCNC(=N)N)NC(=O)[C@H](CO)NC(=O)[C@H](Cc1ccc(O)cc1)NC(=O)[C@H](CO)NC(=O)[C@H](CC(=O)O)NC(=O)[C@@H](NC(=O)[C@@H](N)Cc1ccccc1)[C@@H](C)O)C(=O)N[C@@H](C)C(=O)N[C@H](C(=O)N[C@@H](CCCCN)C(=O)N[C@@H](CCCCN)C(=O)N[C@@H](Cc1ccc(O)cc1)C(=O)N[C@@H](CC(C)C)C(=O)N[C@@H](C)C(=O)N[C@@H](C)C(=O)N[C@H](C(=O)N[C@@H](CC(C)C)C(=O)NCC(=O)N[C@@H](CCCCN)C(=O)N[C@@H](CCCNC(=N)N)C(=O)N[C@@H](Cc1ccc(O)cc1)C(=O)N[C@@H](CCCCN)C(=O)N[C@@H](CCC(N)=O)C(=O)N[C@@H](CCCCn1cc(C[C@H](NC(=O)CNC(=O)[C@H](CO)NC(=O)[C@H](CCCNC(=N)N)NC(=O)[C@H](CO)NC(=O)[C@H](CC(C)C)NC(=O)[C@H](CC(C)C)NC(=O)CNC(=O)[C@H](C)NC(=O)[C@H](CC(C)C)NC(=O)[C@H](CCCNC(=N)N)NC(=O)[C@H](Cc2c[nH]cn2)NC(=O)[C@@H](NC(=O)[C@@H](N)C(C)C)[C@@H](C)O)C(=O)N[C@H](C(=O)N[C@H](C(=O)N[C@@H](CCCCN)C(=O)N[C@@H](CC(N)=O)C(=O)N[C@@H](CC(N)=O)C(=O)N[C@@H](Cc2ccccc2)C(=O)N[C@H](C(=O)N2CCC[C@H]2C(=O)N[C@H](C(=O)N[C@@H](CC(N)=O)C(=O)N[C@H](C(=O)NCC(=O)N[C@@H](CO)C(=O)N[C@@H](CCCCN)C(=O)N[C@@H](C)C(=O)N[C@@H](Cc2ccccc2)C(N)=O)C(C)C)[C@@H](C)O)C(C)C)C(C)C)C(C)C)nn1)C(=O)N[C@H](C(=O)N[C@@H](CCCCN)C(=O)N[C@@H](CC(N)=O)C(=O)N[C@@H](CCCCN)C(N)=O)C(C)C)C(C)C)C(C)C | VIPR2 | cAMP, antagonist | – | – | Kb | > 10 µM |
| CCN(CC)C(=O)[C@@H]1C=C2c3cccc4c3c(cn4C(=O)c3ccco3)C[C@H]2N(C)C1 | Beta-1 adrenergic receptor (ADRB1, Homo sapiens, UniProt P08588) | ligand displacement, radioligand | – | – | Ki | > 10 µM |
| CCN(CC)C(=O)c1ccc(C(c2cccc(O)c2)N2CC(C)N(Cc3ccccc3)CC2C)cc1 (centres unmarked) | Delta-type opioid receptor (OPRD1, Homo sapiens, UniProt P41143, I304A) | – | – | – | Ki | 0.00057 ± 0.00019 µM |
| C[C@@H](Cc1ccsc1)NC(=O)NC[C@H](Cc1ccc(O)cc1)N(C)C | 5-hydroxytryptamine receptor 1A (HTR1A, Homo sapiens, UniProt P08908) | cell-free assay | – | – | Ki | > 100 µM |
| CCC(C(=O)Nc1ccccc1C)n1cccc2nc(SCc3ccc(F)cc3)nc1-2 (centres unmarked) | Calpain-1 catalytic subunit (CAPN1, Homo sapiens, UniProt P07384) | enzyme activity | – | – | IC50 | > 100 µM |
| CC(C)CC(C(=O)N1CC2(CC1C#N)C(=O)Nc1ccccc12)N(C)C(=O)c1cc2c(F)cc(F)c(F)c2[nH]1 (centres unmarked) | Cathepsin K (CTSK, Homo sapiens, UniProt P43235) | enzyme activity, inhibitor | – | – | IC50 | 18.5 µM |
| CSCC[C@H](NC(=O)[C@H](CCC(N)=O)NC(=O)[C@H](CCCCN)NC(=O)[C@H](CCCNC(=N)N)NC(=O)[C@H](Cc1ccc(O)cc1)NC(=O)[C@H](CCCNC(=N)N)NC(=O)[C@H](CO)NC(=O)[C@H](Cc1ccc(O)cc1)NC(=O)[C@H](CO)NC(=O)[C@H](CC(=O)O)NC(=O)[C@@H](NC(=O)[C@@H](N)Cc1ccccc1)[C@@H](C)O)C(=O)N[C@@H](C)C(=O)N[C@H](C(=O)N[C@@H](CCCCN)C(=O)N[C@@H](CCCCN)C(=O)N[C@@H](Cc1ccc(O)cc1)C(=O)N[C@@H](CC(C)C)C(=O)N[C@@H](C)C(=O)N[C@@H](C)C(=O)N[C@H](C(=O)N[C@@H](CC(C)C)C(=O)NCC(=O)N[C@@H](CCCCN)C(=O)N[C@@H](CCCNC(=N)N)C(=O)N[C@@H](Cc1ccc(O)cc1)C(=O)N[C@@H](CCCCN)C(=O)N[C@@H](CCC(N)=O)C(=O)N[C@@H](CCCNC(=N)N)C(=O)N[C@H](C(=O)N[C@@H](CCCCN)C(=O)N[C@@H](CC(N)=O)C(=O)N[C@@H](CCCCn1cc(C[C@H](NC(=O)CNC(=O)[C@H](CO)NC(=O)[C@H](CCCNC(=N)N)NC(=O)[C@H](CO)NC(=O)[C@H](CC(C)C)NC(=O)[C@H](CC(C)C)NC(=O)CNC(=O)[C@H](C)NC(=O)[C@H](CC(C)C)NC(=O)[C@H](CCCNC(=N)N)NC(=O)[C@H](Cc2c[nH]cn2)NC(=O)[C@@H](NC(=O)[C@@H](N)C(C)C)[C@@H](C)O)C(=O)N[C@H](C(=O)N[C@H](C(=O)N[C@@H](CCCCN)C(=O)N[C@@H](CC(N)=O)C(=O)N[C@@H](CC(N)=O)C(=O)N[C@@H](Cc2ccccc2)C(=O)N[C@H](C(=O)N2CCC[C@H]2C(=O)N[C@H](C(=O)N[C@@H](CC(N)=O)C(=O)N[C@H](C(=O)NCC(=O)N[C@@H](CO)C(=O)N[C@@H](CCCCN)C(=O)N[C@@H](C)C(=O)N[C@@H](Cc2ccccc2)C(N)=O)C(C)C)[C@@H](C)O)C(C)C)C(C)C)C(C)C)nn1)C(N)=O)C(C)C)C(C)C)C(C)C | VIPR2 | cAMP accumulation, antagonist | – | with: VIP | Kb | 0.148 µM |
| CN(C)[C@H](CNC(=O)/C=C/c1cccc2ccccc12)Cc1ccc(O)cc1 | 5-hydroxytryptamine receptor 6 (HTR6, Homo sapiens, UniProt P50406) | – | – | – | Ki | 8.8 ± 3.2 µM |
| COc1ccccc1C(C[N+](=O)[O-])c1c(-c2ccccc2)[nH]c2ccccc12 (centres unmarked) | Cannabinoid receptor 1 (CNR1, Homo sapiens, UniProt P21554, V249A) | G protein activation, agonist, BRET | – | – | EC50 | 0.59 µM |
| CSCC[C@H](NC(=O)[C@H](CCC(N)=O)NC(=O)[C@H](CCCCN)NC(=O)[C@H](CCCNC(=N)N)NC(=O)[C@H](Cc1ccc(O)cc1)NC(=O)[C@H](CCCNC(=N)N)NC(=O)[C@H](CO)NC(=O)[C@H](Cc1ccc(O)cc1)NC(=O)[C@H](CO)NC(=O)[C@H](CC(=O)O)NC(=O)[C@@H](NC(=O)[C@@H](N)Cc1ccccc1)[C@@H](C)O)C(=O)N[C@@H](C)C(=O)N[C@H](C(=O)N[C@@H](CCCCN)C(=O)N[C@@H](CCCCn1cc(C[C@H](NC(=O)CNC(=O)[C@H](CO)NC(=O)[C@H](CCCNC(=N)N)NC(=O)[C@H](CO)NC(=O)[C@H](CC(C)C)NC(=O)[C@H](CC(C)C)NC(=O)CNC(=O)[C@H](C)NC(=O)[C@H](CC(C)C)NC(=O)[C@H](CCCNC(=N)N)NC(=O)[C@H](Cc2c[nH]cn2)NC(=O)[C@@H](NC(=O)[C@@H](N)C(C)C)[C@@H](C)O)C(=O)N[C@H](C(=O)N[C@H](C(=O)N[C@@H](CCCCN)C(=O)N[C@@H](CC(N)=O)C(=O)N[C@@H](CC(N)=O)C(=O)N[C@@H](Cc2ccccc2)C(=O)N[C@H](C(=O)N2CCC[C@H]2C(=O)N[C@H](C(=O)N[C@@H](CC(N)=O)C(=O)N[C@H](C(=O)NCC(=O)N[C@@H](CO)C(=O)N[C@@H](CCCCN)C(=O)N[C@@H](C)C(=O)N[C@@H](Cc2ccccc2)C(N)=O)C(C)C)[C@@H](C)O)C(C)C)C(C)C)C(C)C)nn1)C(=O)N[C@@H](Cc1ccc(O)cc1)C(=O)N[C@@H](CC(C)C)C(=O)N[C@@H](C)C(=O)N[C@@H](C)C(=O)N[C@H](C(=O)N[C@@H](CC(C)C)C(=O)NCC(=O)N[C@@H](CCCCN)C(=O)N[C@@H](CCCNC(=N)N)C(=O)N[C@@H](Cc1ccc(O)cc1)C(=O)N[C@@H](CCCCN)C(=O)N[C@@H](CCC(N)=O)C(=O)N[C@@H](CCCNC(=N)N)C(=O)N[C@H](C(=O)N[C@@H](CCCCN)C(=O)N[C@@H](CC(N)=O)C(=O)N[C@@H](CCCCN)C(N)=O)C(C)C)C(C)C)C(C)C | VIPR2 | cAMP, antagonist | – | – | Kb | > 10 µM |
| O=C1NC2(CC2)COc2ncc(F)cc2[C@H]2COCCN2c2ccn3ncc1c3n2 | – | – | Sprague-Dawley rat, male, kidneys | oral, 10 mg/kg/day, 4 weeks, end of treatment | organ-to-body weight ratio | 0.779 ± 0.202% |

Excerpt of the above:
| Compound | target or system | assay | system | conditions | measurement | value |
| --- | --- | --- | --- | --- | --- | --- |
| CCN(CC)C(=O)[C@@H]1C=C2c3cccc4c3c(cn4C(=O)c3ccco3)C[C@H]2N(C)C1 | Beta-1 adrenergic receptor (ADRB1, Homo sapiens, UniProt P08588) | ligand displacement, radioligand | – | – | Ki | > 10 µM |
